# Published values collected from several papers.
# Protocols differ between the studies behind these lines. “And” joins repeats or separate records; there may be more than shown. ± marks the error that the study gave.
# IDE: Insulin-degrading enzyme (IDE, Homo sapiens, UniProt P14735)
# Kir3.1/Kir3.4: Kir3.1/Kir3.4 (Homo sapiens, UniProt P48544+P48549)
# UniProt P48544, sequence (whole entry, looked up): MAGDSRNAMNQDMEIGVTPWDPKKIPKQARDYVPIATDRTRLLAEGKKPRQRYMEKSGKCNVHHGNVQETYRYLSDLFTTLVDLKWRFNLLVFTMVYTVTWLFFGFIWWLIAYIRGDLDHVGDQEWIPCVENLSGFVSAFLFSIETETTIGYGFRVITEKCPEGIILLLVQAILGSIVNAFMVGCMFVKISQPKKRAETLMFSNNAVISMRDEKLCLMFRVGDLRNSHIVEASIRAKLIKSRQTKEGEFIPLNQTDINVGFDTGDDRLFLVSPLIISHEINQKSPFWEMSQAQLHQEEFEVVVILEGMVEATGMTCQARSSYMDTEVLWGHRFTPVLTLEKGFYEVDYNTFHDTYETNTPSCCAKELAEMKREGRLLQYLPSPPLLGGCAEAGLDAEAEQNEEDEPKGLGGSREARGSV
# UniProt P48549, sequence (whole entry, looked up): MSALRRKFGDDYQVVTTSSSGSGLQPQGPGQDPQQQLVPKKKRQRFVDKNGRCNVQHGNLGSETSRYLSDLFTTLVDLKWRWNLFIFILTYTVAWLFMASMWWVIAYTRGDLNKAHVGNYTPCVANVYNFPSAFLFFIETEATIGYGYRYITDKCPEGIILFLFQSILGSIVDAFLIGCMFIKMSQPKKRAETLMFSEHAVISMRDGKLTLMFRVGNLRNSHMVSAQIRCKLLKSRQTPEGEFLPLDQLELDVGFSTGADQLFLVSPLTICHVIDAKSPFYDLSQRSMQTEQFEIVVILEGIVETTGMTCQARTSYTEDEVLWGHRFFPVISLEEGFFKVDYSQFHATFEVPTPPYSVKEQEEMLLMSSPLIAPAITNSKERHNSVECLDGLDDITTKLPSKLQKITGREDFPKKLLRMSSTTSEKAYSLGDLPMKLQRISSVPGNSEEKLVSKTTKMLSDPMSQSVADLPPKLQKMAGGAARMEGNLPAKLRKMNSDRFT
# CNR1: Cannabinoid receptor 1 (CNR1, Homo sapiens, UniProt P21554)
# UniProt P21554, sequence (whole entry, looked up): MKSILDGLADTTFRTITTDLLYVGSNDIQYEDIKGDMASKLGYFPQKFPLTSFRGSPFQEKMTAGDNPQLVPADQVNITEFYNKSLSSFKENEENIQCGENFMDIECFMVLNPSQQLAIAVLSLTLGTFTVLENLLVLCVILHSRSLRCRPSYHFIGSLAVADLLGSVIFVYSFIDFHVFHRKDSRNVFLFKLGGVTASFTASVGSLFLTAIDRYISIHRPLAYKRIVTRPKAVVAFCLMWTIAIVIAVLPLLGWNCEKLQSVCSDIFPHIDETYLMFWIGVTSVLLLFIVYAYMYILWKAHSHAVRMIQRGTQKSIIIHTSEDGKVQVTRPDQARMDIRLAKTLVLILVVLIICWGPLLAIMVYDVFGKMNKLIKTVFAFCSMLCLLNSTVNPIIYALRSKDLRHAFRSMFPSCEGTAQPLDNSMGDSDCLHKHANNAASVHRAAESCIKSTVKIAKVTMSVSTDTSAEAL
# SOST: Sclerostin (SOST, Homo sapiens, UniProt Q9BQB4)
# UniProt Q9BQB4, sequence (whole entry, looked up): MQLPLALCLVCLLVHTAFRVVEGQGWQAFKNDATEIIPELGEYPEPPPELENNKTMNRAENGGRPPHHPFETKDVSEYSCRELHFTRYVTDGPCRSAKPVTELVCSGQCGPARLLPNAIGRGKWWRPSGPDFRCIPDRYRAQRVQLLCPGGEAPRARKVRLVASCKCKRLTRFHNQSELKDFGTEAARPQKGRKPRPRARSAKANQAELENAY
# MAPT phosphorylated: Microtubule-associated protein tau, phosphorylated (MAPT, Homo sapiens, UniProt P10636)
# UniProt P46089, sequence (whole entry, unmodified, looked up): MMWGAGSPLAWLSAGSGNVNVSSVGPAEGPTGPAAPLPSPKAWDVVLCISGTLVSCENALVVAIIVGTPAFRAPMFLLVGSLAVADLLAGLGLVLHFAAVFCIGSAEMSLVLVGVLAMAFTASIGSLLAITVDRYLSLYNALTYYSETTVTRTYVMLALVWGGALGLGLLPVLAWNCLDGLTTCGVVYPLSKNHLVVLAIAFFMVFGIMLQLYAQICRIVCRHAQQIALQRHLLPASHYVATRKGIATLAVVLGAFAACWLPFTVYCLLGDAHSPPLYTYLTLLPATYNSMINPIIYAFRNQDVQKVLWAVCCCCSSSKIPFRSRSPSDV
# UniProt P10636, sequence (whole entry, looked up): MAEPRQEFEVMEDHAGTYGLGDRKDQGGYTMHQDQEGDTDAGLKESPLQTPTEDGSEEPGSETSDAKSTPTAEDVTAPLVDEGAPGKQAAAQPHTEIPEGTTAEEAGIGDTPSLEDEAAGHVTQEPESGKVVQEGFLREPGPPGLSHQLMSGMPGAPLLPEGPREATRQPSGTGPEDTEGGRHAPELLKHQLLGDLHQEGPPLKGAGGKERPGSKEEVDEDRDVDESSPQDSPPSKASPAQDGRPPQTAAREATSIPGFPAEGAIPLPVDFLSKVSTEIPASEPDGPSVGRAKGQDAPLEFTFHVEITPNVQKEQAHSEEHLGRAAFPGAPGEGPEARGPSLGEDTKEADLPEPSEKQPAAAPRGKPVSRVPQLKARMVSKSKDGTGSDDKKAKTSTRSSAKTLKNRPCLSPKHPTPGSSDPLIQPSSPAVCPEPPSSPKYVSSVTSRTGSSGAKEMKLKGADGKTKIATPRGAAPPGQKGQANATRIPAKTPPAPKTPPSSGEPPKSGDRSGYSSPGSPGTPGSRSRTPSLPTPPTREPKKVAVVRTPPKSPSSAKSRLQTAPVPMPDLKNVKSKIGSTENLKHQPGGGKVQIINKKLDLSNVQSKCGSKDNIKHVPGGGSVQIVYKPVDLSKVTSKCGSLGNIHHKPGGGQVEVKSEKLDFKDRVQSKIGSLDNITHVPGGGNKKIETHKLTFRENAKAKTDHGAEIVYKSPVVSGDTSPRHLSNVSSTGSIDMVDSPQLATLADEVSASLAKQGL
# UniProt P21917, sequence (whole entry, looked up): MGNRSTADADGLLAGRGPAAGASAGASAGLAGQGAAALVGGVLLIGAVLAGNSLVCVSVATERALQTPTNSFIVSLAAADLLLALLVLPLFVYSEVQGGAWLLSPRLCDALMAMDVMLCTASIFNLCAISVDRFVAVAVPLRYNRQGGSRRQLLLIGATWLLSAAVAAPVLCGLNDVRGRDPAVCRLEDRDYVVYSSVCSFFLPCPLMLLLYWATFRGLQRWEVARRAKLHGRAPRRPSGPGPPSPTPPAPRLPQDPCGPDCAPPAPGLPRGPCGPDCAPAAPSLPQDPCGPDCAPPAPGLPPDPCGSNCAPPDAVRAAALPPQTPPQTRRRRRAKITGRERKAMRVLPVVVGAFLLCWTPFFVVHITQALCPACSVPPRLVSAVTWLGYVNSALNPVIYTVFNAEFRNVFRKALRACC
# UniProt P62942, sequence (whole entry, looked up): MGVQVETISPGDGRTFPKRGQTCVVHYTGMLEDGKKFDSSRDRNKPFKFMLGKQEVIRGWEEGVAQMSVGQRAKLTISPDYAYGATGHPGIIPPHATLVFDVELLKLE
# UniProt P25103, sequence (whole entry, unmodified, looked up): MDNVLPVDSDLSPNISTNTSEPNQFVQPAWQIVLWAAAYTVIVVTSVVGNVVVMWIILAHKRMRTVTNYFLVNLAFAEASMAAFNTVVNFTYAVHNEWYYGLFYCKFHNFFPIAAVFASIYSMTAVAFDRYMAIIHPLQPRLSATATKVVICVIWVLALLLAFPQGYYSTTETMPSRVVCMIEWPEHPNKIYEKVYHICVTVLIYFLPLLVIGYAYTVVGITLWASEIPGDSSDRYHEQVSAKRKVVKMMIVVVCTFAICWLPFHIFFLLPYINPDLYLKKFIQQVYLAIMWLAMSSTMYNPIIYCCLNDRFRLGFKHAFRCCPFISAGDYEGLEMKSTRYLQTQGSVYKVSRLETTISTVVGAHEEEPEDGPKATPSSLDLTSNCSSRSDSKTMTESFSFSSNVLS
# UniProt P0DMS8, sequence (whole entry, unmodified, looked up): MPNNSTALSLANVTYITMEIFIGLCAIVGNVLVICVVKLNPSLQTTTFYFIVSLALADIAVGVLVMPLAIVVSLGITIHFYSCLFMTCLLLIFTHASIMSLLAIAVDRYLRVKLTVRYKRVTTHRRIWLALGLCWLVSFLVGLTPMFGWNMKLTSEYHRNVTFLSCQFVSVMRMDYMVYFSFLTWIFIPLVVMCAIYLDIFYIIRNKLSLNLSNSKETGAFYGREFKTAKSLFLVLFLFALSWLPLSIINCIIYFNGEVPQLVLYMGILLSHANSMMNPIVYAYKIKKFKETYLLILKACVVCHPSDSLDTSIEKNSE
# UniProt Q16288, sequence (whole entry, looked up): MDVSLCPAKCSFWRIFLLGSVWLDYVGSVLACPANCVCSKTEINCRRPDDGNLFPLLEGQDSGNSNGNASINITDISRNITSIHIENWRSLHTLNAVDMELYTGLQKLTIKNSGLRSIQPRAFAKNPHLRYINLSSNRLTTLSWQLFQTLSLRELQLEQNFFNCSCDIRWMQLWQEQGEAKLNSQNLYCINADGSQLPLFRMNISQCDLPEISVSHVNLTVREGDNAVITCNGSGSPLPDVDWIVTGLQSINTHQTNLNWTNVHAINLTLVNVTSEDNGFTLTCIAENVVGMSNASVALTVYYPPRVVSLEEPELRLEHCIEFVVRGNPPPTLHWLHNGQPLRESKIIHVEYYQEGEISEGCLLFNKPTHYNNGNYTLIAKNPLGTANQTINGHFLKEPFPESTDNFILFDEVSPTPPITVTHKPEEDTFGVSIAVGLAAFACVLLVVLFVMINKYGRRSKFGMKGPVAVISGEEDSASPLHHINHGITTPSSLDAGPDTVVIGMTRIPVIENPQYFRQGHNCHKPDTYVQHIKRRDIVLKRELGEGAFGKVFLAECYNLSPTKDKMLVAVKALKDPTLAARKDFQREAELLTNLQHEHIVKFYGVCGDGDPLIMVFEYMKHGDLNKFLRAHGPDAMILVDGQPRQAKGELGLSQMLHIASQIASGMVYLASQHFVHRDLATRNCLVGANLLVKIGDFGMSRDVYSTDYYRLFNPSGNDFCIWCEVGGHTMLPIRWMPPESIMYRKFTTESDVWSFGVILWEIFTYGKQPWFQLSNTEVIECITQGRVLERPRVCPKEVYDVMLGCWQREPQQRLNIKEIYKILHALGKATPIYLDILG
Structure (SMILES),tested on,test,system,conditions,how to read,quantity,result
Cc1cccc(-c2ccc(C3C(CO)N4CCCCN(S(=O)(=O)c5ccccc5C)CC34)cc2)c1 (stereo not shown),IDE,inhibitor,,,,EC50,190 nM
O=C(COc1ccc(C(F)(F)F)cc1C(F)(F)F)Nc1cc(C2CCC2)nn1CC(F)(F)F,Kir3.1/Kir3.4,"activator, thallium flux",HEK293,,,EC50,10000 nM
CNc1ncnc2c1ncn2C1OC(CO)C(O)C1O (stereo not shown),"ADORA3 (Homo sapiens, UniProt P0DMS8, V169E)","G protein activation, agonist",,,,EC50,2500 nM
O=C(COc1cccc(Cl)c1Cl)Nc1cc(C2CC2)nn1C1CCOCC1,Kir3.1/Kir3.4,"activator, thallium flux",HEK293,,,EC50,725 nM
CCOC(=O)[C@](CC)(CCCSCCOCCOCCN)NC(=O)c1ccc(C2CC2)c(Cc2ccc(F)cc2)n1,CNR1,"cAMP, agonist",,,,EC50,57 nM
Cn1c(=O)n(C2CCC(=O)NC2=O)c2ccc(C3CCN(CC(=O)Nc4cccc(CS(=O)(=O)N5CC[C@H](Nc6cccc(-c7sc(C(=O)O)c(OCC(=O)O)c7Cl)c6)CC5(C)C)c4)CC3)cc21 (stereo partly shown),"PTPN6 (Homo sapiens, UniProt P29350)",phosphatase activity,,together with: DiFMUP substrate,,EC50,> 10000 nM
CC(=O)N[C@@H]1[C@@H](O[C@@H]2O[C@H](C(=O)O)[C@@H](OS(=O)(=O)O)[C@H](OS(=O)(=O)O)[C@H]2OS(=O)(=O)O)[C@H](OS(=O)(=O)O)[C@@H](COS(=O)(=O)O)O[C@H]1N=[N+]=[N-],SOST,fluorescence polarization competition,,together with: TAMRA-labelled probe,,EC50,110000 ± 28700 nM
CCOC(=O)C(CC)(CCCSCCOCCN)NC(=O)c1ccc(C2CC2)c(Cc2ccc(F)cc2)n1 (stereo not shown),CNR1,"cAMP, agonist",,,,EC50,0.6 nM
CC(=O)N[C@@H]1[C@@H](O[C@@H]2O[C@H](C(=O)O)[C@@H](O[C@@H]3O[C@H](COS(=O)(=O)O)[C@@H](OS(=O)(=O)O)[C@H](O[C@@H]4O[C@H](C(=O)O)[C@@H](OS(=O)(=O)O)[C@H](OS(=O)(=O)O)[C@H]4OS(=O)(=O)O)[C@H]3NC(C)=O)[C@H](OS(=O)(=O)O)[C@H]2OS(=O)(=O)O)[C@H](OS(=O)(=O)O)[C@@H](COS(=O)(=O)O)O[C@H]1n1ccnn1,SOST,fluorescence polarization competition,,together with: TAMRA-labelled probe,,EC50,9940 ± 880 nM
CSCC[C@H](NC(=O)[C@H](CC(C)C)NC(=O)CNC(=O)[C@H](Cc1ccccc1)NC(=O)[C@H](Cc1ccccc1)NC(=O)[C@@H](N)CCC(N)=O)C(N)=O,"TACR1 (Homo sapiens, UniProt P25103, N85Q)",agonist,,concentration not given,,EC50,63.1 nM
CCc1cc(NC(=O)COc2cc(Cl)ccc2Cl)n(CC(F)(F)F)n1,Kir3.1/Kir3.4,"activator, thallium flux",HEK293,,,EC50,1060 nM
COc1ccc(C2(C(=O)N3CCC(Nc4nc5ccccc5c(=O)[nH]4)CC3)CC2)cc1,"MRGPRD (Homo sapiens, UniProt Q8TDS7)","β-arrestin recruitment, agonist",,,,EC50,166 nM
CC(=O)N[C@@H]1[C@@H](O[C@@H]2O[C@H](C(=O)O)[C@@H](O[C@@H]3O[C@H](CO)[C@@H](O)[C@H](O[C@@H]4O[C@H](C(=O)O)[C@@H](OS(=O)(=O)O)[C@H](OS(=O)(=O)O)[C@H]4OS(=O)(=O)O)[C@H]3NC(C)=O)[C@H](OS(=O)(=O)O)[C@H]2OS(=O)(=O)O)[C@H](O)[C@@H](CO)O[C@H]1N=[N+]=[N-],SOST,fluorescence polarization competition,,"corrected value, together with: TAMRA-labelled probe",,EC50,35400 ± 9700 nM
C=C[C@H]1CN([C@@H](C)c2cn(CCCNC(=O)CCc3ccc4n3[B-](F)(F)[N+]3=C(c5ccc[nH]5)C=CC3=C4)nn2)C(=O)[C@@H]2CCC[C@H]1N2S(=O)(=O)c1cc(Cl)cc(Cl)c1,"FKBP1A (Homo sapiens, UniProt P62942)","tracer binding, NanoBRET tracer titration",HEK293T transiently expressing FKBP1A,"2 h, 37 °C",,EC50,28 ± 1 nM
CNS(=O)(=O)Nc1nccc(Cc2c(C)c3ccc(Oc4ncccc4F)cc3oc2=O)c1F,SiHa,cell viability,,7 days,,IC50,> 1000 nM
Cc1nn(-c2cccc(N)c2)c(=O)c2cnc(Nc3ccc(N4CCNCC4)cc3)nc12,"NTRK3 (Homo sapiens, UniProt Q16288)","kinase activity, inhibitor, SelectScreen kinase profiling",,,,IC50,> 10000 nM
Nc1ncnc2c1ncn2[C@@H]1O[C@H](COP(=O)(O)OP(=O)(O)OC[C@H]2OC(O)[C@H](O)[C@@H]2O)[C@@H](O)[C@H]1OP(=O)(O)O (stereo partly shown),"TRPM2 (Nematostella vectensis, UniProt A7T1N0, T702C)",agonist,,,,EC50,84 ± 5 nM
CC1Cc2ccccc2N1C(=O)CN1CCN(Cc2ccccc2)CC1 (stereo not shown),"DRD4 (Homo sapiens, UniProt P21917)",agonist,,,,EC50,2 nM
CC(=O)N[C@@H]1[C@@H](O[C@@H]2O[C@H](C(=O)O)[C@@H](O[C@@H]3O[C@H](COS(=O)(=O)O)[C@@H](OS(=O)(=O)O)[C@H](O[C@@H]4O[C@H](C(=O)O)[C@@H](OS(=O)(=O)O)[C@H](OS(=O)(=O)O)[C@H]4OS(=O)(=O)O)[C@H]3NC(C)=O)[C@H](OS(=O)(=O)O)[C@H]2OS(=O)(=O)O)[C@H](OS(=O)(=O)O)[C@@H](COS(=O)(=O)O)O[C@H]1SCCOCCOCCSSCCOCCOCCS[C@@H]1O[C@H](COS(=O)(=O)O)[C@@H](OS(=O)(=O)O)[C@H](O[C@@H]2O[C@H](C(=O)O)[C@@H](O[C@@H]3O[C@H](COS(=O)(=O)O)[C@@H](OS(=O)(=O)O)[C@H](O[C@@H]4O[C@H](C(=O)O)[C@@H](OS(=O)(=O)O)[C@H](OS(=O)(=O)O)[C@H]4OS(=O)(=O)O)[C@H]3NC(C)=O)[C@H](OS(=O)(=O)O)[C@H]2OS(=O)(=O)O)[C@H]1NC(C)=O,SOST,fluorescence polarization competition,,"corrected value, together with: TAMRA-labelled probe",,EC50,3940 ± 5140 nM
Nc1ccccc1Nc1nc2ccccc2[nH]1,MAPT phosphorylated,"tau aggregation cytotoxicity, 10-point dose response",,,,EC50,9400 nM
CCN(CC)C(CO)c1cccc2c(C)c(C)oc12 (stereo not shown),"LPAR1 (Homo sapiens, UniProt Q92633)","Gi activation, agonist, NanoBiT G-protein dissociation",HEK293T,,,EC50,2.29 nM
Cc1ncsc1-c1ccc(C(C)NC(=O)C2CC(O)CN2C(=O)C(NC(=O)CCCCCCCCCCN2CCCC(Nc3ncc(Cl)c(Nc4ccccc4S(=O)(=O)C(C)C)n3)C2)C(C)(C)C)cc1 (stereo not shown),22Rv1,"RNA-seq, refers to: ZNF564 mRNA",,concentration not given,relative to: DMSO,log2 fold change,-2.3
COc1ccc(C(=O)c2c(C(=O)NCCCN(C)C)oc3ccc(Cl)cc3c2=O)cc1OC,"GHSR (Homo sapiens, UniProt Q92847)",calcium mobilization,HEK293T transfected,,,EC50,91.2 nM
CC(=O)N[C@@H]1[C@@H](O[C@@H]2O[C@H](C(=O)O)[C@@H](O[C@@H]3O[C@H](COS(=O)(=O)O)[C@@H](O)[C@H](O[C@@H]4O[C@H](C(=O)O)[C@@H](O)[C@H](O)[C@H]4O)[C@H]3NC(C)=O)[C@H](O)[C@H]2O)[C@H](O)[C@@H](COS(=O)(=O)O)O[C@H]1N=[N+]=[N-],SOST,fluorescence polarization competition,,together with: TAMRA-labelled probe,,EC50,74000 ± 13200 nM
COc1ccc(-n2nc([N+](=O)[O-])/c(=N/c3cc(C)ccc3C)n2O)cc1,MAPT phosphorylated,"tau aggregation cytotoxicity, 10-point dose response",,,,EC50,> 28700 nM
CC(=O)N[C@H]1[C@H](O[C@H]2[C@H](OS(=O)(=O)O)[C@@H](OS(=O)(=O)O)[C@H](O[C@H]3[C@H](OS(=O)(=O)O)[C@@H](COS(=O)(=O)O)OC[C@@H]3NC(C)=O)O[C@@H]2C(=O)O)O[C@H](COS(=O)(=O)O)[C@@H](OS(=O)(=O)O)[C@@H]1O[C@@H]1O[C@H](C(=O)O)[C@@H](OS(=O)(=O)O)[C@H](OS(=O)(=O)O)[C@H]1OS(=O)(=O)O,SOST,fluorescence polarization competition,,together with: TAMRA-labelled probe,,EC50,4920 ± 680 nM
Fc1ccc(CN2CCC[C@@H](c3nc(-c4ccc(F)c5cn[nH]c45)no3)C2)cn1,CNR1,,,,,EC50,94.6 nM and 116 nM and 119 nM
COC1CN([C@H]2CC[C@H]([C@@]3(C)Oc4c(Cl)cc(C(=O)NCc5c(SC)cc(C)[nH]c5=O)c(C)c4O3)CC2)C1,,"RNA-seq, refers to: MEIS1 mouse homolog","mouse, HT-1376 xenograft, whole blood",dose not given,relative to: vehicle,log2 fold change,0.383
CCOC(=O)C(CC)(CCCSCCOCCOCCOCCNc1ccc([N+](=O)[O-])c2nonc12)NC(=O)c1ccc(C2CC2)c(Cc2ccc(F)cc2)n1 (stereo not shown),CNR1,"cAMP, agonist",,,,EC50,789 nM
Cc1cccc(-c2ccc([C@@H]3[C@@H](CO)N4CCCCN(S(=O)(=O)c5nccn5C)C[C@@H]34)cc2)c1C,IDE,inhibitor,,,,EC50,2 nM
CC(C)Oc1cc(Cl)ccc1CNc1cc(-c2ccccc2)nc2ncnn12,"GPR3 (Homo sapiens, UniProt P46089, R152A)","cAMP level, agonist, GloSensor",,receptor R152A mutant,,EC50,155 nM and 123 nM and 132 nM and 339 nM
O=C(Cc1ccc(OCc2ccccc2)cc1)NC1(C(=O)O)CCN(C(=O)c2ccc(-c3cccc(Cl)c3)cc2)CC1,"LPAR3 (Homo sapiens, UniProt Q9UBY5)","cAMP, agonist, luciferase",,,,EC50,> 10000 nM
CC(=O)N[C@@H]1[C@@H](O[C@@H]2O[C@H](C(=O)O)[C@@H](O[C@@H]3O[C@H](COS(=O)(=O)O)[C@@H](OS(=O)(=O)O)[C@H](O[C@@H]4O[C@H](C(=O)O)[C@@H](O[C@@H]5O[C@H](COS(=O)(=O)O)[C@@H](OS(=O)(=O)O)[C@H](O[C@@H]6O[C@H](C(=O)O)[C@@H](OS(=O)(=O)O)[C@H](OS(=O)(=O)O)[C@H]6OS(=O)(=O)O)[C@H]5NC(C)=O)[C@H](OS(=O)(=O)O)[C@H]4OS(=O)(=O)O)[C@H]3NC(C)=O)[C@H](OS(=O)(=O)O)[C@H]2OS(=O)(=O)O)[C@H](OS(=O)(=O)O)[C@@H](COS(=O)(=O)O)O[C@H]1N=[N+]=[N-],SOST,fluorescence polarization competition,,"corrected value, together with: TAMRA-labelled probe",,EC50,609 ± 177 nM
O=C(COc1ccc(Cl)cc1Cl)Nc1cc(C2CC2)nn1C1CCOCC1,Kir3.1/Kir3.4,"activator, thallium flux",HEK293,,,EC50,560 nM
CS[C@@H]1O[C@H](COS(=O)(=O)O)[C@@H](OS(=O)(=O)O)[C@H](O[C@@H]2O[C@H](C(=O)O)[C@@H](O[C@@H]3O[C@H](COS(=O)(=O)O)[C@@H](OS(=O)(=O)O)[C@H](O[C@@H]4O[C@H](C(=O)O)[C@@H](OS(=O)(=O)O)[C@H](OS(=O)(=O)O)[C@H]4OS(=O)(=O)O)[C@H]3NC(C)=O)[C@H](OS(=O)(=O)O)[C@H]2OS(=O)(=O)O)[C@H]1NC(C)=O,SOST,fluorescence polarization competition,,together with: TAMRA-labelled probe,,EC50,11300 ± 1090 nM
CCOC(=O)C(CC)(CCCSCCOCCOCCOCCN)NC(=O)c1ccc(C2CC2)c(Cc2ccc(F)cc2)n1 (stereo not shown),CNR1,"cAMP, agonist",,,,EC50,146 nM
O=C(O)c1ccccc1OCc1ccccc1Br,"CDC42 (Homo sapiens, UniProt P60953)","GTP binding, flow cytometry bead",,"EDTA buffer, together with: 100 nM BODIPY-GTP",,EC50,102 nM

# Some of these lines once more:
Structure (SMILES),tested on,test,system,conditions,how to read,quantity,result
CNS(=O)(=O)Nc1nccc(Cc2c(C)c3ccc(Oc4ncccc4F)cc3oc2=O)c1F,SiHa,cell viability,,7 days,,IC50,> 1000 nM
CC(=O)N[C@@H]1[C@@H](O[C@@H]2O[C@H](C(=O)O)[C@@H](O[C@@H]3O[C@H](COS(=O)(=O)O)[C@@H](OS(=O)(=O)O)[C@H](O[C@@H]4O[C@H](C(=O)O)[C@@H](OS(=O)(=O)O)[C@H](OS(=O)(=O)O)[C@H]4OS(=O)(=O)O)[C@H]3NC(C)=O)[C@H](OS(=O)(=O)O)[C@H]2OS(=O)(=O)O)[C@H](OS(=O)(=O)O)[C@@H](COS(=O)(=O)O)O[C@H]1SCCOCCOCCSSCCOCCOCCS[C@@H]1O[C@H](COS(=O)(=O)O)[C@@H](OS(=O)(=O)O)[C@H](O[C@@H]2O[C@H](C(=O)O)[C@@H](O[C@@H]3O[C@H](COS(=O)(=O)O)[C@@H](OS(=O)(=O)O)[C@H](O[C@@H]4O[C@H](C(=O)O)[C@@H](OS(=O)(=O)O)[C@H](OS(=O)(=O)O)[C@H]4OS(=O)(=O)O)[C@H]3NC(C)=O)[C@H](OS(=O)(=O)O)[C@H]2OS(=O)(=O)O)[C@H]1NC(C)=O,SOST,fluorescence polarization competition,,"corrected value, together with: TAMRA-labelled probe",,EC50,3940 ± 5140 nM
Cn1c(=O)n(C2CCC(=O)NC2=O)c2ccc(C3CCN(CC(=O)Nc4cccc(CS(=O)(=O)N5CC[C@H](Nc6cccc(-c7sc(C(=O)O)c(OCC(=O)O)c7Cl)c6)CC5(C)C)c4)CC3)cc21 (stereo partly shown),"PTPN6 (Homo sapiens, UniProt P29350)",phosphatase activity,,together with: DiFMUP substrate,,EC50,> 10000 nM
